Measured values of several laboratories.
Parts stem from different laboratories: compare values within a part only. Positions count from the first letter of the parent shown.

Sample 1 — method: universal PBM; form: double-stranded DNA, one strand shown; sample: in vitro; concentration: not given; direction: higher = stronger binding; quantity: E-score
Target: Sal-like protein 4, full length isoform B (SALL4, Homo sapiens, UniProt Q9UJQ4-2, residues 1-616)
Setting: 8-mer, flanks averaged, mean of replicates
AGAATCCG: -0.179
GTGGTTGA: -0.0243
ACGCTATA: 0.151
GGAGCGGA: -0.263
ACACGACC: -0.0983
AGAAAGGG: 0.0098
AAACCCGC: -0.155
ACAGAGTG: 0.0484
TGGAACAA: 0.167
CTGGTCGC: -0.198
GGATGGCA: 0.0511
AGAGCAAT: 0.0621
GGCTCACC: -0.356
CCCGGGAG: -0.391
CAACCGGA: -0.292
AACAATGA: 0.227

Sample 2 — target: CREB3L4, bZIP domain (human); method: DHFR protein complementation; sample: yeast; reference: wild-type JUN-FOS pair; direction: higher = stronger binding; quantity: binding fitness
Setting: single substitutions, most at no-binding floor
Parent: JUN, bZIP domain (human); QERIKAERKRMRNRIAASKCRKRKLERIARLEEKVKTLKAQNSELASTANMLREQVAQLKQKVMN; partner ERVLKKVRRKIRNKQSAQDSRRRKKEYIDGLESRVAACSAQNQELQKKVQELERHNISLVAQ
R53M: -1.37 natural log
N42R: -1.4 natural log
A29F: -1.41 natural log
K36V: -1.46 natural log
R30S: -1.29 natural log
S43D: -1.43 natural log
Q55M: -1.42 natural log
S43R: -1.41 natural log
Q41R: -1.49 natural log
S43N: -1.31 natural log
L38P: -1.53 natural log
R30W: -1.5 natural log
Q55Y: -1.37 natural log
R53W: -1.47 natural log
L38W: -1.46 natural log
I28Q: -1.63 natural log
K39A: -1.47 natural log

Sample 3 — method: DHFR PCA, deep sequencing; sample: yeast; together with: (+)-ABA 0.032 µM; reference: wild-type fitted maximum; direction: higher = stronger binding; quantity: relative binding score
Target: ABI1, truncated, D143A, DHFR fusion (Arabidopsis thaliana)
Setting: methotrexate growth selection, single substitutions
Parent: PYL1, truncated, DHFR fusion (Arabidopsis thaliana); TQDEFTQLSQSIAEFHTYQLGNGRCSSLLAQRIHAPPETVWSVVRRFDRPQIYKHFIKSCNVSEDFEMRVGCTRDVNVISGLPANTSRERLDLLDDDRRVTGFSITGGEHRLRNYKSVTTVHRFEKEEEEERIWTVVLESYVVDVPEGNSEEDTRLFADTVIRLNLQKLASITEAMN
E147P: 34.2%
T39Y: 6.68%
E89G: 0.867%
V76N: 1.37%
D159S: -3.87%
C72K: -1.89%
Q19F: 6.58%
Q31K: 8.63%
Y53N: -0.0153%
W41K: -2.19%
V100D: -0.127%
L28S: 1.76%
Y53G: -0.908%
N85Y: 64.6%
W134N: 12%
L112K: 4.71%
T101W: 0.507%
R88D: 0.205%
E128L: 18.2%
S9L: 27.1%
T135Q: -4.73%
V142L: -6.75%

Sample 4 — method: RNA Bind-n-Seq; form: RNA; sample: in vitro; concentration: 200 nM; setting: whole 134-nt RNA, ends assumed; together with: 150 mM LiCl; reference: input library; direction: higher = stronger binding; quantity: log2 enrichment; each molecule: 7-deaza-guanosine replaces G
Target: Fragile X messenger ribonucleoprotein 1, C-terminal low-complexity region (Fmr1, Mus musculus, UniProt P35922)
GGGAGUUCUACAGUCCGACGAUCGUCCUGUGCUACACAUCGUAUGUACCGAAUCGGAAAAAGGGGAAAAAGGGAAAAAGGGGAAAGUAUUAUGUUACGCCGUUCGGAUCUGCAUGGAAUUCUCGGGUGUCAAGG: 0.541
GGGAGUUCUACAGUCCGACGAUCUUUUCUUCUGGGGCAUUUAUCCGUGCUGAUCUUGGUGAAUGGGGCAUGAGUCUAACGAUCAGAGCCCCUAGUGUAGAUUACAGAAACACUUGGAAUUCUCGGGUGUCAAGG: -0.985
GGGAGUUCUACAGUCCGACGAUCCACAGACAACACGCACCCACACAGACACAGAGGGAAGGGCUUGGGAUGGGGACAGGGUGCACAGCAGGGCGGGGUAGGACCCCAGCCCCUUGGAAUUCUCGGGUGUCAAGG: -0.747
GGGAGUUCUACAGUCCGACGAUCGUCCUGUGCUACACAUCGUAUGUACCGAAUCGGGUGGGAAAAAAAGGGAAAAAAAGGGAAAGUAUUAUGUUACGCCGUUCGGAUCUGCACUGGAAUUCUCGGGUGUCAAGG: 0.607
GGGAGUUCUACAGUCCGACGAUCUUAGAAGAAGAAGAUGGAGUGUGGGAGAAUGGACUUUCCUAUGAAUGCCGUACUCUGCUUUUCAAAGCAGUUCACAAUCUAUUGGAACGGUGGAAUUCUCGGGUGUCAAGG: -3.42
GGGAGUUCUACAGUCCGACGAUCUGUGCUACACAUCGUAUGUACCGAAUCGGGGUUUUUUUGGGGUUUUUUUGGGGUUUUUUUGGGAAAGUAUUAUGUUACGCCGUUCGGAUCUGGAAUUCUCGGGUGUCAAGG: 2.04
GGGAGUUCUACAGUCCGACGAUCUCAAGUCCUGUGCUACACAUCGUAUGUACCGAAUCGGAAAAAGGAAAGGAAAGGAAAGUAUUAUGUUACGCCGUUCGGAUCUGCACUUCCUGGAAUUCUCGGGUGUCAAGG: -0.939
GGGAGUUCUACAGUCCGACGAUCUCAAGUCCUGUGCUACACAUCGUAUGUACCGAAUCGGAAAGGUUUUUUUGGUGGAAAGUAUUAUGUUACGCCGUUCGGAUCUGCACUUCCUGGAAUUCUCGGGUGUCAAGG: -1.15
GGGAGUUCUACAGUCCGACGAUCCAAGUCCUGUGCUACACAUCGUAUGUACCGAAUCGGGUUUUGGUUUUGGGUUUUGGAAAGUAUUAUGUUACGCCGUUCGGAUCUGCACUUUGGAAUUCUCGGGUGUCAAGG: -2.08
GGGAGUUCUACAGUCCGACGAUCUCAAGUCCUGUGCUACACAUCGUAUGUACCGAAUCGGAGGUUUGGUUUUUUUGGAAAGUAUUAUGUUACGCCGUUCGGAUCUGCACUUCCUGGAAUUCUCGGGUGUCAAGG: -0.836
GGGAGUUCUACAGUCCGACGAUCCUGUGCUACACAUCGUAUGUACCGAAUCGGGGAAAGGGGAAAAAAAGGGGUUUUUUUGGGGAAAGUAUUAUGUUACGCCGUUCGGAUCUGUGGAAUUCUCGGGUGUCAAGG: -0.429

Sample 5 — target: CCNE1, cyclin fold, Cln2 fusion (human); method: yeast growth competition, sequencing; sample: yeast; setting: strong parent motif; reference: not given; direction: higher = stronger binding; quantity: normalised enrichment score
Parent: E2F1 docking peptide (human); PPVKRRLDFETDH
P2A: 6.15
E10H: 6.18
L7D: 0.101
T11P: 6.16
E10S: 6.05
D8I: 4.92
R5F: 0.217
R5W: 0.0862
V3E: 1.42
K4C: 5.48
D12M: 6.28
D8M: 6.4
E10C: 6.27
L7R: -0.0129
E10T: 6.15
R5C: 0.745
D8F: 7.39
P2W: 5.86
K4W: 2.41
V3M: 2.54

Repeated from above (sample 5):
E10T: 6.15
L7R: -0.0129
E10S: 6.05
P2W: 5.86
V3M: 2.54
V3E: 1.42
K4W: 2.41
D12M: 6.28
E10C: 6.27
